# Experimental data pooled from the literature.
# Several values in a cell are separate wells, animals, samples, runs or records. ± gives the spread as reported.
SMILES,assay,test system,setting,endpoint,result
CSCC[C@H](NC(=O)[C@@H](NC(=O)[C@H](CC(C)C)NC(=O)[C@@H](NC(=O)[C@H](Cc1c[nH]cn1)NC(=O)CCCCCNC(=O)[C@H](CCCNC(=N)N)NC(=O)[C@H](CCCNC(=N)N)NC(=O)[C@H](CCCNC(=N)N)NC(=O)[C@H](CCC(N)=O)NC(=O)[C@H](CCCNC(=N)N)NC(=O)[C@H](CCCNC(=N)N)NC(=O)[C@H](CCCCN)NC(=O)[C@H](CCCCN)NC(=O)[C@H](CCCNC(=N)N)NC(=O)CNC(=O)[C@@H](N)Cc1ccc(O)cc1)C(C)C)C(C)C)C(=O)N[C@@H](CS)C(=O)N[C@@H](C)C(=O)N[C@H](C(N)=O)[C@@H](C)O,,C57BL/6J mice,"Alzet osmotic pump, 3 mg/kg, 8 weeks",serum Globulin,1.6 g/dL and 1.9 g/dL and 1.5 g/dL
N=C(N)NCCC[C@@H](NC(=O)[C@H](N)Cc1c[nH]c2ccccc12)C(=O)N[C@H](CCCCN)C(=O)N[C@H](Cc1c[nH]c2ccccc12)C(=O)N[C@H](CCCNC(=N)N)C(=O)N[C@H](CCCCN)C(=O)N[C@H](Cc1c[nH]c2ccccc12)C(=O)N[C@H](CCCNC(=N)N)C(=O)N[C@H](CCCCN)C(=O)N[C@H](Cc1c[nH]c2ccccc12)C(=O)N[C@H](CCCNC(=N)N)C(=O)N[C@H](CCCCN)C(N)=O,,"mouse, serum",20 mg/kg,NGAL level,41.6 ng/mL
C[C@H](O)[C@@H](NC(=O)[C@H]1CCCN1C(=O)[C@@H](CCCCN)NC(=O)[C@@H](CO)NC(=O)[C@@H](Cc1ccc(O)cc1)NC(=O)[C@@H](CC(N)=O)NC(=O)CCOCCOCCOCCNC(=O)CN1CCN(CC(=O)O)CCN(CC(=O)O)CCN(CC(=O)O)CC1)C(=O)N[C@H](CC(=O)O)C(=O)N[C@H](CCCNC(=N)N)C(=O)N[C@H](CCC(N)=O)C(=O)N[C@H](Cc1ccc(O)cc1)C(=O)N[C@H](Cc1c[nH]cn1)C(=O)N[C@H](Cc1ccccc1)C(N)=O [gallium-68 labelled],,"BALB/c nude mice U-87 MG tumour, pancreas","intravenous, 1.85 MBq, 0.5 h, radiolabelled",tissue uptake,0.77 ± 0.75 %ID/g
CC[C@H](C)[C@H](NC(=O)[C@H](CCCCN)NC(=O)CNC(=O)[C@H](CC(C)C)NC(=O)[C@H](Cc1ccccc1)NC(=O)[C@H](CCCCN)NC(=O)[C@H](CO)NC(=O)[C@H](Cc1ccccc1)NC(=O)[C@H](Cc1c[nH]c2ccccc12)NC(=O)[C@H](CCC(N)=O)NC(=O)[C@@H](NC(=O)[C@H](Cc1ccccc1)NC(=O)CCCCCNC(=O)CN1CCN(CC(=O)O)CCN(CC(=O)O)CCN(CC(=O)O)CC1)C(C)C)C(=O)N[C@@H](CCC(=O)O)C(=O)N1CCC[C@H]1C(=O)N[C@@H](CC(=O)O)C(=O)N[C@H](C(=O)N[C@@H](CO)C(=O)N[C@@H](CCC(N)=O)C(=O)N[C@H](C(=O)N[C@@H](CCC(N)=O)C(=O)N[C@@H](CC(=O)O)C(=O)N1CCC[C@H]1C(=O)N[C@@H](CC(N)=O)C(=O)N[C@@H](CC(=O)O)C(=O)N[C@@H](CCC(N)=O)C(=O)N[C@@H](Cc1ccc(O)cc1)C(=O)N[C@@H](CCC(=O)O)C(=O)N1CCC[C@H]1C(=O)N[C@@H](Cc1ccccc1)C(=O)O)C(C)C)C(C)C [copper-64 labelled],,"C57BL/6 mice, lung","vehicle, intratracheal instillation",tissue uptake,3.64 ± 0.2 %ID/g
CSCC[C@H](NC(=O)CNC(=O)[C@H](CCCCN)NC(=O)[C@H](CC(C)C)NC(=O)[C@@H]1CCCN1C(=O)[C@H](CO)NC(=O)[C@H](Cc1c[nH]cn1)NC(=O)[C@H](Cc1c[nH]c2ccccc12)NC(=O)[C@H](CCCNC(=N)N)NC(=O)[C@H](CC(C)C)NC(=O)[C@H](CCCNC(=N)N)NC(=O)[C@H](Cc1c[nH]c2ccccc12)NC(=O)[C@H](CS)NC(=O)CCCCCNC(=O)CN1CCN(CC(=O)O)CCN(CC(=O)O)CCN(CC(=O)O)CC1)C(=O)O [copper-64 labelled],PET imaging,"BALB/c nude mice, tumor","intravenous, dose not given, 30 h, Huh-7 tumour-bearing",tissue uptake,3.8 ± 0.29 %ID/g
CC(C)C[C@H](NC(=O)[C@H](CCCNC(=N)N)NC(=O)[C@H](Cc1ccccc1)NC(=O)[C@H](Cc1ccccc1)NC(=O)[C@@H](N)[C@@H](C)O)C(=O)N[C@@H](Cc1ccccc1)C(=O)N[C@@H](CC(N)=O)C(=O)N[C@@H](CCCNC(=N)N)C(=O)N[C@@H](C)C(=O)N[C@@H](CCCCN)C(=O)N[C@@H](CCCNC(=N)N)C(=O)N[C@@H](Cc1c[nH]cn1)C(=O)N[C@@H](Cc1c[nH]cn1)C(=O)NCC(=O)N[C@@H](Cc1ccc(O)cc1)C(=O)N[C@@H](CCCCN)C(=O)N[C@@H](CCCNC(=N)N)C(=O)N[C@@H](CCCCN)C(=O)N[C@@H](Cc1ccccc1)C(=O)N[C@@H](Cc1c[nH]cn1)C(=O)O,HPLC-UV,human saliva,"1 h, 37 °C, together with: initial 1 mg/mL",peptide concentration,0.86 mg/mL
CC[C@H](C)[C@H](NC(=O)[C@H](CCCNC(=N)N)NC(=O)[C@H](CCCCN)NC(=O)[C@H](Cc1ccc(O)cc1)NC(=O)[C@H](CC(=O)O)NC(=O)[C@H](C)NC(=O)CNC(=O)CCOCCOCCOCCNC(=O)CN1CCN(CC(=O)O)CCN(CC(=O)O)CCN(CC(=O)O)CC1)C(=O)N[C@H](C(=O)N[C@H](C(=O)N[C@@H](CCCCN)C(=O)N[C@H](C(=O)N[C@@H](CC(N)=O)C(N)=O)C(C)C)C(C)C)[C@@H](C)O [copper-64 labelled],ex vivo gamma counting,"male C57BL/6J mouse, B16-F10 tumour, B16-F10 tumour","intravenous, 1.85 MBq, 20 min",tissue uptake,2.6 ± 0.225 %ID/g
CC[C@H](C)[C@H](NC(=O)[C@H](Cc1c[nH]c2ccccc12)NC(=O)c1ccccc1)C(=O)N[C@@H](CCCNC(=N)N)C(=O)N[C@@H](Cc1ccc(O)cc1)C(=O)N[C@@H](CCCCN)C(=O)N[C@@H](Cc1c[nH]c2ccccc12)C(=O)N1CCC[C@@H]1C(=O)N[C@@H](CCCNC(=N)N)C(=O)N[C@@H](CCCCN)C(=O)N[C@H](C(=O)N[C@H](C(=O)N[C@@H](CCCNC(=N)N)C(=O)N[C@@H](Cc1ccc(O)cc1)C(=O)N[C@@H](Cc1c[nH]c2ccccc12)C(=O)N[C@H](C(=O)NCC(=O)N1CCC[C@H]1C(N)=O)[C@@H](C)O)C(C)C)C(C)C,circular dichroism,phosphate buffer,"30 µM, pH 6.5",melting temperature,64.5 °C
COc1ccc(CNc2ccc3c(c2)S(=O)(=O)C=C3)cc1,,"male C57BL/6 mice, blood","intraperitoneal, 10 mg/kg, day 8, group average",mean platelet volume,5.43 fL
C=Cc1c(C)c2cc3nc(c(CC(=O)O)c4[nH]c(cc5nc(cc1[nH]2)C(C)=C5CC)c(C)c4C(=O)O)[C@@H](CCC(=O)NCCCC[C@H](NC(C)=O)C(=O)N[C@@H](Cc1ccccc1)C(=O)N[C@@H](Cc1ccccc1)C(=O)N[C@H](C(=O)N[C@@H](CC(C)C)C(=O)N[C@@H](CCCCN)C(=O)N[C@@H](CO)C(=O)NCC(=O)N[C@@H](CCC(N)=O)C(=O)NCC(=O)N[C@@H](Cc1ccc(O)cc1)C(=O)N[C@@H](CCCNC(=N)N)C(=O)N[C@@H](Cc1c[nH]c2ccccc12)C(=O)N[C@@H](CC(=O)O)C(=O)N[C@@H](CO)C(=O)N[C@@H](Cc1ccc(O)cc1)C(=O)N[C@@H](CCCNC(=N)N)C(=O)N[C@@H](Cc1c[nH]c2ccccc12)C(=O)N[C@@H](Cc1c[nH]cn1)C(=O)N1CCC[C@H]1C(=O)N[C@@H](CO)C(=O)N[C@@H](CS)C(=O)N[C@@H](C)C(=O)N[C@@H](CS)C(=O)NCC(=O)NCC(=O)N[C@@H](CO)C(=O)N[C@@H](CCCCN)C(N)=O)C(C)C)[C@@H]3C,,"mouse, 4T1 breast tumour, serum","concentration not given, 21 days after single dose",TNF level,43.1 pg/mL and 42.2 pg/mL
CC[C@H](C)[C@H](NC(=O)CNC(=O)[C@H](Cc1c[nH]cn1)NC(=O)[C@H](CC(C)C)NC(=O)CNC(=O)[C@H](CC(C)C)NC(=O)[C@H](CCCCN)NC(=O)[C@H](Cc1ccccc1)NC(=O)[C@H](CC(C)C)NC(=O)[C@H](CCCCN)NC(=O)CNC(=O)[C@H](Cc1c[nH]c2ccccc12)NC(=O)[C@H](Cc1ccccc1)NC(=O)CN)C(=O)NCC(=O)N[C@@H](CC(C)C)C(=O)N[C@@H](CC(C)C)C(=O)N[C@@H](Cc1c[nH]cn1)C(=O)N[C@@H](CC(C)C)C(=O)N[C@@H](Cc1c[nH]cn1)C(=O)N[C@@H](CC(C)C)C(N)=O,,"zebrafish embryos 4 hpf, E3 medium",1 h,acute toxic concentration,1 µM
O=C1NC2(CC2)COc2ncc(F)cc2[C@H]2COCCN2c2ccn3ncc1c3n2,,"Sprague-Dawley rat, female, blood","oral, 5 mg/kg/day, 4 weeks, end of recovery, subacute toxicity",mean corpuscular volume,56.7 ± 1.6 fL
CCCCCCCCCCCCCCCC(=O)N[C@@H](CCC(=O)NCCOCCOCCC(=O)NCCOCCOCCC(=O)NCCCC[C@H](NC(=O)[C@H](CC(=O)O)NC(=O)[C@H](CC(C)C)NC(=O)[C@H](Cc1ccc(O)cc1)NC(=O)[C@H](CCCCN)NC(=O)[C@H](CO)NC(=O)[C@H](Cc1ccc(O)cc1)NC(=O)[C@H](CC(=O)O)NC(=O)[C@H](CO)NC(=O)[C@@H](NC(=O)[C@H](Cc1ccccc1)NC(=O)[C@@H](NC(=O)CNC(=O)[C@H](CCC(N)=O)NC(=O)[C@@H](CO)NC(=O)[C@@H](N)Cc1c[nH]cn1)[C@@H](C)O)[C@@H](C)O)C(=O)N[C@@H](CCCNC(=N)N)C(=O)N[C@@H](CCCNC(=N)N)C(=O)N[C@@H](C)C(=O)N[C@@H](CCC(N)=O)C(=O)N[C@@H](CC(=O)O)C(=O)N[C@@H](Cc1ccccc1)C(=O)N[C@H](C(=O)N[C@@H](CCC(N)=O)C(=O)N[C@@H](Cc1c[nH]c2ccccc12)C(=O)N[C@@H](CC(C)C)C(=O)N[C@@H](CC(C)C)C(=O)N[C@@H](CC(N)=O)C(=O)N[C@H](C(=O)NCC(=O)NCC(=O)N1CCC[C@H]1C(=O)N[C@@H](CO)C(=O)N[C@@H](CO)C(=O)NCC(=O)N[C@@H](C)C(=O)N1CCC[C@H]1C(=O)N1CCC[C@H]1C(=O)N1CCC[C@H]1C(=O)N[C@@H](CO)C(N)=O)[C@@H](C)O)C(C)C)C(=O)O,,"rhesus monkey, male, plasma","subcutaneous, 300 µg/kg, day 28, toxicokinetics, median",Tmax,2 h

# Excerpt of the above:
SMILES,assay,test system,setting,endpoint,result
C[C@H](O)[C@@H](NC(=O)[C@H]1CCCN1C(=O)[C@@H](CCCCN)NC(=O)[C@@H](CO)NC(=O)[C@@H](Cc1ccc(O)cc1)NC(=O)[C@@H](CC(N)=O)NC(=O)CCOCCOCCOCCNC(=O)CN1CCN(CC(=O)O)CCN(CC(=O)O)CCN(CC(=O)O)CC1)C(=O)N[C@H](CC(=O)O)C(=O)N[C@H](CCCNC(=N)N)C(=O)N[C@H](CCC(N)=O)C(=O)N[C@H](Cc1ccc(O)cc1)C(=O)N[C@H](Cc1c[nH]cn1)C(=O)N[C@H](Cc1ccccc1)C(N)=O [gallium-68 labelled],,"BALB/c nude mice U-87 MG tumour, pancreas","intravenous, 1.85 MBq, 0.5 h, radiolabelled",tissue uptake,0.77 ± 0.75 %ID/g
